Measurements of several laboratories.
A part holds a random share of what one study measured. Substitutions count along the parent as printed.

Sample 1
Target: RNA binding protein fox-1 homolog 2, RRM domain, GST-SBP tag (RBFOX2, Homo sapiens, UniProt O43251-10, residues 100-194)
Technique: RNA Bind-n-Seq
Molecule type: RNA
Matrix: in vitro
Tested at: 365 nM
Notes: natural RNA segment, single round, ends assumed
Relative to: no-protein control
Direction: higher = stronger binding
Shared flanks, not repeated: GGGAGUUCUACAGUCCGACGAUC … UGGAAUUCUCGGGUGCCAA
Strand | RBNS enrichment (R)
GCUUCACGCAGGUUUGGCCUGGGCUUUCACUGUUGGUGAAUUUAGAGUGUCCUUUUAGGUGGGGCGGCUAUUCUAAAAGUGUCUUUCUAUCACUGUUAAGGGGGGGGGAA | 0.744
GAGAUUUGAAAUCCCUUACCUCCAAUAAUAAGCCAUUCAGCCUAAAUUCAUUUUUAUGAAUAAAUCUCUUCUUUCUCAUGGUAAAUGUGGCUUGUGCCACUCAAACACUA | 0.749
UGGAAACAAACCCAUGAAUGAAGAAGAAACUCUUAAAAUGGUUCUGUCUGCACUGAUUCAAAGAGGAUUUGUGGGAAAGAAAACUAAAGGCAUGGGUUUCGUCCAAAAAU | 1.09
ACUAUUAAACUGAUUAAGGCUGUUUAUUUUUACUCCUAGAAAUGGUCAUAUGAAGUAGAUGUGCAAUCAUGUAGACAGCAGGCCAAGGUGAUCAGUGGCUAAAGUUGAAA | 0.648
UGAGAAAAUGUAAAGGCUGCCAUUAUGGAUAUUAGGUAUCCCAACAUAACCAUCUGGAGUGUGUCCAGUUUAUUUUUCAUAGGACCAAUUUUUAUUUGCAGCUUAGGUUU | 0.632
GCUUGGGGCCCCAGCCUUAACUUCUCGACAGUUCCGUGAGGAUGACUUCCGGAGAGUUGUGGACUUUAUAGAUGAAGGGGUCAACAUUGGCUUAGAGGUGAAGAGCAAGA | 0.413
GGCUUAUUCUCUGCUCUAUAGUUGUGAAAUGAAGAGUAAAAACAAAUUUGUUUGACUAUUUUAAAAUUAUAUUAGACCUUAAGCUGUUUUAGCAAGCAUUAAAGCAAAUG | 0.456
UGAAGAUUUUGAGGUUUUUAAUUUAAAGGCUGUGUACAGUUAUACUUUUUUAUACACCUGUUCAUUUCUACUUAAAUUAUGGCACAGAUUGAUGCGCACCAGUCUUGAGG | 0.724
GUGUGUCUGUGUUGACCCUGGGACAAGUGUGAGACAGGAAGAGUGUGGGGAGUCUGGGCUCGGUAGUAACUCUGGGAUAUUUCAAGGAUGGCUUUCUUUUUGACUGUGCU | 1.77
CAUCCAUUGUAGAGGGUGAGAAUAAAGGAGAAAUUAAAGCAUCUUGCAGGCUGGGCGCGGUAGCUCAUGUCUGUAAUCCCAGCACUUUGGGAGGCCGAGGUGGGUGUAUC | 1.14
UGAUUUAAUAUUUUCACAGACUAGGCCAUGUGCAAAAUUAGAGUUCCCUGUGUAACCCCAGCCAGCAGGCCCAGCAUGGCUGCGUGCACUCAUUGCAGUCUUGUUGAACC | 0.466
AGUGCUUCAAAUACUUAGAAUUCUAAUAUGAGAGAUAGUUUAAUAUUCUGGAAUAGAGAGUAUUUUAAAUUGAAAUGACCAAAUUCGAUUUAAAACAAACACAUAACAAU | 0.593

Sample 2
Target: Interferon regulatory factor 5, full length, phosphomimetic (IRF5, Homo sapiens, UniProt Q13568-2, residues 1-514, K96S/S451D/S453D/S456D/S462D)
Technique: protein-binding microarray
Molecule type: double-stranded DNA, one strand shown
Matrix: in vitro
Tested at: 250 nM
Notes: 60-bp whole probe
Added: salmon DNA 0.4 mg/ml
Relative to: random background probes
Direction: higher = stronger binding
Shared flanks, not repeated: GCCTAGCAC … GTCTTGATTCGCTTGACGCTGCTG
Strand | log fluorescence
GATGGTTTCCTTTCCCTGACGTGCTAG | 1.45 z-score
TCAAAAATCCCATTAAAACTGTGCTAG | 0.331 z-score
TTAAATTTCAGACTGGATTAGTGCTAG | 0.626 z-score
TAAGATTTCAGTCTCGATTAGTGCTAG | 2.15 z-score
GTGGCTCACACCTGTCATCCCGTGCTA | -0.537 z-score
TGAAATTTTAATAACACAGAGTGCTAG | 0.888 z-score
TTAGGACTGGGGACTGAGTTAGTGCTA | -0.396 z-score
GATGAACTGAGACTGGAGACGTGCTAG | -0.211 z-score
TTAGGGATCGGGACTGGGTTAGTGCTA | -0.224 z-score
TTTTCTTTTCATTACTGCATGTGCTAG | 3.29 z-score
TTAGGTATCGGTCTCGCTTAGTGCTAG | 6.71 z-score
CAGTTTTCCTATGTCATTTAGTGCTAG | 1.43 z-score
TTAGAACTGAGACTCGATTAGTGCTAG | -0.00741 z-score
GACGGACTGCTTATCCTGAAGTGCTAG | -0.565 z-score
GACGGTCACCTACTGCTGACGTGCTAG | -0.327 z-score
AGATGCCAAGAGGCATGATGGTGCTAG | -0.565 z-score
TTAGGACTGCTATTGCTTTAGTGCTAG | -0.0438 z-score
TTAGGACTGGGTATCAGTTAGTGCTAG | 0.382 z-score
TTCGATTTCGGGTTTCGATTAGTGCTA | 8.91 z-score
TTAGATTTCGGTACTGGATTAGTGCTA | 7.81 z-score
TTAGGTTTCGGGTCTCGGTTAGTGCTA | 8.1 z-score
TCAGATTTCCATTATTGACTGTGCTAG | 0.745 z-score
TTAGAATTCAGTTTCGATTAGTGCTAG | 9.55 z-score
GACGGTATGGGTCTCGGGACGTGCTAG | -0.365 z-score
TCATGACTCTGCCTCTAACTGTGCTAG | -0.315 z-score

Sample 3
Target: ABI1, truncated, D143A, DHFR fusion (Arabidopsis thaliana)
Technique: DHFR PCA, deep sequencing
Matrix: yeast
Notes: methotrexate growth selection, single substitutions
Added: (+)-ABA 710 µM
Relative to: wild-type fitted maximum
Direction: higher = stronger binding
Starting sequence: PYL1, truncated, DHFR fusion (Arabidopsis thaliana); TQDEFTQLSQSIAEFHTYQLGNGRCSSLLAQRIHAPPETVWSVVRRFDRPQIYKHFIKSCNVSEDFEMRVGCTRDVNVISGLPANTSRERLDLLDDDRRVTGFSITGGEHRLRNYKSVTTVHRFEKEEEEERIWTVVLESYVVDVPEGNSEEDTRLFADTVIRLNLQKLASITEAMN
Substitution | relative binding score
G107H | 103%
G71E | 69.7%
N22I | 103%
D65I | 92%
N85C | 101%
T6F | 94.4%
V40T | 70.5%
Q2M | 102%
C25S | 92%
D96P | 79.2%
F5I | 102%
A35P | -4.74%
G108T | 53.9%
I133F | 110%
C25A | 100%
V78F | 87.6%
L8Q | 95%
T119R | 38.9%
Y53S | 68.6%
S63N | 101%
P37Y | 77%

Sample 4
Target: CCND2, cyclin fold, Cln2 fusion (human)
Technique: yeast growth competition, sequencing
Matrix: yeast
Notes: weak parent motif
Relative to: not given
Direction: higher = stronger binding
Starting sequence: USP37 docking peptide (human); PSAKRSLGFLPQP
Substitution | normalised enrichment score
PSAKASLGFLPQP [R5A] | 0.0726
PSAKRSLAFLPQP [G8A] | 0.0668
PSAKRSLGFLPQA [P13A] | -0.0762
PSAKRSLGALPQP [F9A] | -0.186
PSAKRSLGFAPQP [L10A] | 0.0697
PAAKRSLGFLPQP [S2A] | 0.0449

Sample 5
Target: Histone acetyltransferase KAT6A, winged helix 1, GST fusion (KAT6A, Homo sapiens, UniProt Q92794, residues 1-85)
Technique: protein binding microarray
Molecule type: double-stranded DNA, one strand shown
Matrix: in vitro
Tested at: not given
Notes: 8-mer, flanks averaged, mean of 2 arrays, mostly near background
Relative to: not given
Direction: higher = stronger binding
Residues (chain): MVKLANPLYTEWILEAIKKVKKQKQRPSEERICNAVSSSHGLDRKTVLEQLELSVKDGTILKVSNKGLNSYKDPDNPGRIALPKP
Strand | E-score
CGATCCAG | -0.0525
ACTTTTGC | -0.114
ATACCAAG | 0.0328
TACCACGA | -0.206
CTTTACTC | -0.131
ATAGTTTA | -0.0671
AGCAGACC | -0.0356
ACATGTAT | -0.0465
CCCCGAAA | -0.0835
AAACTCTC | -0.0491
ATAAAGAG | -0.113
CCTTAAGA | -0.162
CATCGAAC | -0.0494
CTCACGCC | 0.234
AGTATAGG | -0.0986
AAGTTGTG | -0.279
CTTGTCTC | -0.184
CCGGGAAC | 0.362
ACGAGCCC | 0.049
CCCCGGCG | 0.439
GACCTGAA | -0.0527
CTGCGATC | -0.0673
CAGCCGGC | 0.385
GAGTGGTA | -0.103
CAAGTGCA | -0.231

Some of these lines once more (sample 1):
Strand | RBNS enrichment (R)
GCUUCACGCAGGUUUGGCCUGGGCUUUCACUGUUGGUGAAUUUAGAGUGUCCUUUUAGGUGGGGCGGCUAUUCUAAAAGUGUCUUUCUAUCACUGUUAAGGGGGGGGGAA | 0.744
GAGAUUUGAAAUCCCUUACCUCCAAUAAUAAGCCAUUCAGCCUAAAUUCAUUUUUAUGAAUAAAUCUCUUCUUUCUCAUGGUAAAUGUGGCUUGUGCCACUCAAACACUA | 0.749
UGGAAACAAACCCAUGAAUGAAGAAGAAACUCUUAAAAUGGUUCUGUCUGCACUGAUUCAAAGAGGAUUUGUGGGAAAGAAAACUAAAGGCAUGGGUUUCGUCCAAAAAU | 1.09
ACUAUUAAACUGAUUAAGGCUGUUUAUUUUUACUCCUAGAAAUGGUCAUAUGAAGUAGAUGUGCAAUCAUGUAGACAGCAGGCCAAGGUGAUCAGUGGCUAAAGUUGAAA | 0.648
UGAGAAAAUGUAAAGGCUGCCAUUAUGGAUAUUAGGUAUCCCAACAUAACCAUCUGGAGUGUGUCCAGUUUAUUUUUCAUAGGACCAAUUUUUAUUUGCAGCUUAGGUUU | 0.632
GCUUGGGGCCCCAGCCUUAACUUCUCGACAGUUCCGUGAGGAUGACUUCCGGAGAGUUGUGGACUUUAUAGAUGAAGGGGUCAACAUUGGCUUAGAGGUGAAGAGCAAGA | 0.413
GGCUUAUUCUCUGCUCUAUAGUUGUGAAAUGAAGAGUAAAAACAAAUUUGUUUGACUAUUUUAAAAUUAUAUUAGACCUUAAGCUGUUUUAGCAAGCAUUAAAGCAAAUG | 0.456
UGAAGAUUUUGAGGUUUUUAAUUUAAAGGCUGUGUACAGUUAUACUUUUUUAUACACCUGUUCAUUUCUACUUAAAUUAUGGCACAGAUUGAUGCGCACCAGUCUUGAGG | 0.724
GUGUGUCUGUGUUGACCCUGGGACAAGUGUGAGACAGGAAGAGUGUGGGGAGUCUGGGCUCGGUAGUAACUCUGGGAUAUUUCAAGGAUGGCUUUCUUUUUGACUGUGCU | 1.77
CAUCCAUUGUAGAGGGUGAGAAUAAAGGAGAAAUUAAAGCAUCUUGCAGGCUGGGCGCGGUAGCUCAUGUCUGUAAUCCCAGCACUUUGGGAGGCCGAGGUGGGUGUAUC | 1.14
UGAUUUAAUAUUUUCACAGACUAGGCCAUGUGCAAAAUUAGAGUUCCCUGUGUAACCCCAGCCAGCAGGCCCAGCAUGGCUGCGUGCACUCAUUGCAGUCUUGUUGAACC | 0.466
AGUGCUUCAAAUACUUAGAAUUCUAAUAUGAGAGAUAGUUUAAUAUUCUGGAAUAGAGAGUAUUUUAAAUUGAAAUGACCAAAUUCGAUUUAAAACAAACACAUAACAAU | 0.593
